Measured values pooled from the literature.
A part holds a random share of what one study measured.

Series 1
Target: RNA binding protein fox-1 homolog 2, RRM domain, GST-SBP tag (RBFOX2, Homo sapiens, UniProt O43251-10, residues 100-194)
Technique: RNA Bind-n-Seq
Molecule type: RNA
Matrix: in vitro
Concentration: 365 nM
Notes: natural RNA segment, single round, ends assumed
Reference: no-protein control
Reading: higher = stronger binding
Shared flanks, not repeated: GGGAGUUCUACAGUCCGACGAUC … UGGAAUUCUCGGGUGCCAA
Construct (chain): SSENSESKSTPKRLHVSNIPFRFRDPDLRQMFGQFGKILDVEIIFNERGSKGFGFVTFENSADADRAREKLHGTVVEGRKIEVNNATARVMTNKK
| Strand | RBNS enrichment (R) |
| --- | --- |
| AAGUUUUUGAAGCUGGGAGGAAAAAGAUGGAGUAGCUUGGAAAGAUUCCAGCACUGAGCCGUGGGCCGGUCAUGAGCCACGAUAAAAAAUGCCAGUUUGGCAAACUCAGC | 1.9 |
| GUCAGUAGCCCUAACCUCACUAACUGACAUACUCCCAAACCAGGCUUCUUGGGCCAGGUCUGUCCCAUGAGUCAAAUUUAGGAAAGCAAGGAUAGGUUUUGUCAUAGAUA | 0.385 |
| UGGUCUUGAACUCCUGACCGCAGGUAAUCCACCUGCUUCGGCCUCCCAAAGUGCUGGGAUUACAGGCGCAAGCCACCCAGCCCAGCUUCUUUCCAUUCCUUGAUAGGCGA | 0.186 |
| GAUGAAUCUUGCGUUUUUUACAAAUUGGAGCAGGGACAGAUCAUAGAUUUCUGAUUUUAUGUAAAAUUUUGCCUAAUACAUUAAAGCAGUCACUUUUCCUGUGCUGUUUC | 0.569 |
| CUUGGCUUACUACAACCUCCGCCUCCUGGGUUCAAGCGAUCCUCCUGCCUCAGCCCCCCACUAGCUGGGACUACAGGCACAUGCCACCAUGCCCGGCUAAUUUUUUUGUA | 0.589 |
| CCUUAGACUGAUGCUUUGACUGAAUCAUCACUAGCUAUGGCAUUAAAAGGCCUCUCUUCUCAUCUGGUGCCAAAGGUUCCGUUGCAGCUUUUUACAACCAUCCGGUGUGG | 0.349 |
| AUUAACCUGUGUCUUAGAAUUGUUGUAUAUAGUUCUUUUAAUAUCCAUAGGGUAUAUUUUUGAAUUUUUUGGUGAGUAUUUGUUGAAUUUGAGAUAGCAUACAGUAGAUG | 1.06 |
| CAAAAUAGAAUAGCAUCUCCAUGUGCAUUAAAAACUUCGCCAGCACUGCCUUUUGCCAGCAUUCUAAAUUUGGAGUUUUACUGAGAAGGAAACUGUUUUUAUAGUUUUAA | 0.596 |
| AAAAUUUGGAAAUGUAUGCCAGCAAAAUGUGAGCUCUGUAUUUUUUGGCAUUCUUAUGUUUGGGUUUAAUAAGAUUAAGAAAAUGAUACUGGGAAUUUUCUUUUUCCUGA | 7.03 |
| GGCAGGGCCUUGAAAGAGCUCACACUUCCGAGGCGGAAAUGGGUACCAAAAUGAGAGAUCAGCAAGAUUUCCCAAGAUAGGAGAAUCCUCCUGCUGCCUGCGUGGGAGAA | 1.14 |
| CAUCCAGGCAGUCAUGUGUGAUGGGAGCACAUAGCAUCGGGAGAAGCAGAACUCCAUCCUCACCUCUAUUUUGAGCUUAGUGCUUUAUUUCAGUAUGAGGAAAAACAACA | 0.356 |
| AGUGUGUGUGUGUGACUAGACCUCUCAUUUUAAGCUCUAGUCGUAGCACUUUUUCAGAGUCUCCUAGGCGCUGUUGCAGCCCAGCUGGGGCAGCUAGCAUGCCAGGUUGG | 9.42 |

Series 2
Target: RING finger protein unkempt homolog, zinc fingers 1-6, SBP tag (UNK, Homo sapiens, UniProt Q9C0B0, residues 30-357)
UniProt Q9C0B0, sequence (30-357, looked up): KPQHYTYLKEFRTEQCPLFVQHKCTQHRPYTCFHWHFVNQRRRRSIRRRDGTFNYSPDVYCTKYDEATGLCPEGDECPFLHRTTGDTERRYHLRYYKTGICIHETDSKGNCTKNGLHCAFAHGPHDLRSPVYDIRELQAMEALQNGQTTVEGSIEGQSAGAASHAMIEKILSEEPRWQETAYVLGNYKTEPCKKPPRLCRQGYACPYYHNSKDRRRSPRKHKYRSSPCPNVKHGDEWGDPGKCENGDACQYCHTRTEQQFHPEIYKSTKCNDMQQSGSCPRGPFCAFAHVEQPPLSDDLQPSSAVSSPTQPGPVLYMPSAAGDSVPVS
Technique: RNA Bind-n-Seq
Molecule type: RNA
Matrix: in vitro
Concentration: 100 nM
Notes: RNA with constant flanks, vertebrate orthologous sites, ends assumed
Reference: input RNA pool
Reading: higher = stronger binding
Shared flanks, not repeated: GGGAGUUCUACAGUCCGACGAUC … CAACAGAGGAUUGAGCAUCA
| Strand | bound/input enrichment [ratio] |
| --- | --- |
| UCUAGGUAGGAGCAACCAUUAACUUAUUCGAGUAAAGAAAUGAAAAGCUGAAAAUCAUAUUAGUAUUAAGUUUAGUUGGAGAAUUUAAAUAAGACUUUUAGGUAAUUCUAAAAUUGAGUC | 0.833 |
| UGUGCUUAUACUCUUCUAGGGAAGAGAUGAAUUGGGGGAAACUGUCCCCUUUUUAUAGAUUUGUUUCUAAAUUAUGACCAAAAAAUAUUUUGCUAUUUCUUUCUUUAUAUAUGGACAUCU | 0.583 |
| UUGUUUUGUACAGGACCUUCUCUGUACUAGUUUGUUGUAGUUAUAAAAGAGUUAGCAAACCGGCUUACAUUUGUAUUUAUUUUCUAUUCCAUACUUUCCCCUGCCUCAUAUUUUUUCUUC | 1.1 |
| CGGGGUGCACCUGUGGGGCGCUGCUGGCCGCUUAGCGUCGUUUGGUUUGUGACCUUGACAUAAUAGAUAGGCUUGUGGGUUUUUUUAAUUUAAAAAUAUUAAGACUUAAUUCACUAAAAU | 0.557 |
| AUAGGAACAGCAUAGGCUGUUUGAGCUUUGGGGAAUGAGCUUUGCUUUUUUGUAUUUAAAUAGGAUACUUUUAUAUGAUGGGUGCUUUUGAGUGUGAUUGAAGCAGGCUCCCAUUUCAGA | 1.11 |
| UACAAUCUCUACUCAAGCAGGUAUUUACGUACCACAAUAAGCCUUCAUUUGACAUAUUUACAGCUUUUCUAUUUUCCAGAUGAGAGAAAAGAAUUCCAUGCUUAGAGUUAAAUAUGGUCU | 0.574 |
| ACGCUUUGAUGUAAAAUUUGACAUAAAGAGCAGCUGAUCGCAAGCACGACCCCUCCCCUCUAGCCAUUUAAAAAGUUGAAAAAAAAAAUGAUAAAAAACAAAAAACCUACUAGUCUUGAA | 3.97 |
| ACGCUUUGAUAUAAAGAUUGAGAUUAAGAGCUGAUGAUUGCAGCCGCAAGCUGCGCCUUCUCUGCCACCUCCCCCAUUUCAAAAACCAACAAAAAAAAUUUAAAAAAAAAUUAAACACAA | 0.355 |
| GAAAAUUAUAGCAAAAGAGCCAAGCAGUAGCAUUGUUUAUUUUGUAAAUGUAAAAAUAAUUAGAUGCAAACCUUGUUUCCUUAUUCAAUUUUAAAAAUAAAAAAUACCUCAGUGCUAUGU | 0.533 |
| UAUUCAGAAUCUUAAUAAAUUGCUCUGAGAUCCGAAAGUUGAUAUUGGAGGAUCCGACCAUAGGAUGCUGUUGCCAUAUUGUUUUGUUCUGGUUUUGGUUGAUUUUUUUUUUUUUUUAAU | 1.25 |
| GCAUACCCCAUCACUGUGAUAUUUAAAAUAUGCACAGUCCUAAUUCUUUCUAAAUGAUCCUAUUAUUUUUCUAGCUGUAUCUUUGUAUCUCAUACUGUUAUUUAUCAGUUUUGUUCCCCA | 1.88 |

Series 3
Target: Centromere-binding protein 1, full length, N-terminal tag (CBF1, Saccharomyces cerevisiae, UniProt P17106, residues 1-351)
UniProt P17106, sequence (whole entry, looked up): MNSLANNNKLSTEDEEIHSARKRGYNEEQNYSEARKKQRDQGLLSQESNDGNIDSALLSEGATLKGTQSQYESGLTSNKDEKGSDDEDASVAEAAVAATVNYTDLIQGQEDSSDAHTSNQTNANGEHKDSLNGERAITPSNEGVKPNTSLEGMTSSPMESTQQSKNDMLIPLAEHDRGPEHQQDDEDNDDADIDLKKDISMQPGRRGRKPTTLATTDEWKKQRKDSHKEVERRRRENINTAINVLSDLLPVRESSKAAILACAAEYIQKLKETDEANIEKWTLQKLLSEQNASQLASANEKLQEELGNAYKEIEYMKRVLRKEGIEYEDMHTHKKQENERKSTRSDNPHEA
Technique: protein-binding microarray
Molecule type: double-stranded DNA, one strand shown
Matrix: in vitro
Concentration: 0.8 µM
Notes: whole 60-bp probe, no competitor
Reading: higher = stronger binding
Shared flanks, not repeated: … GTCTTGATTCGCTTGACGCTGCTG
| Strand | fluorescence intensity [a.u.] |
| --- | --- |
| CTAGTATGCAGCGCAGCCGTGACCTCCCGGATATTC | 592 |
| GAATTCCTGGATATGCGCGTGCTAACTAGAGCATAG | 723 |
| CTATGGGGTGAGTGTCACGTGCACAACGACGGTTTC | 20900 |
| CTAGCAAAAGCGCACCACCAAAAGAGAAAAAAGTTC | 526 |
| GAATAAATACTTGAAAACGTGCATGTGATGATGTAG | 2650 |
| GAAGTTTCCCGTAGTGATGACGTACGTGTATAGTAG | 526 |
| CTAGCGCGTGAACATCACGACGCGCCTTCCCGTTTC | 589 |
| CTAAGACATCTTAGTCAGCTGAGACAAGAAAGGTTC | 2480 |
| GAACAGTAAGGAGGTAACATCAGGTCCGTGGATTAG | 504 |
| CCTAACTACTATATTTGAGTCACATAGCTTCGTACA | 591 |
| GAAGATTTTTACAACGACACCACCACCATGTATTAG | 555 |
| GAACACAACACAATGCTCGTGGGTCGTTACCCGTAG | 493 |
| CTATATATGTATAATCACGTAGATAATGTATTGTTC | 1150 |
| GAATTGATCAATCTTTTCGTCACCTTTTCTTCTTAG | 526 |
| CTAAGTCACCTATTTCCCGTGCTTTTCGCATTCTTC | 558 |
| TGTACGAAGCTATATTACATCATTATAGTAGTTAGG | 530 |
| CTACGAATGTTGAATCACGCCAGAATCACCAAATTC | 564 |
| CCTAACTACTATAGTCATATGATATAGCTTCGTACA | 1080 |
| CTAATTGGCATTACTCAGCTGATACTTATTAATTTC | 733 |
| CTACCTGCTGGTAATCTCAGCTGAAAGGCTGCCTTC | 481 |
| CTAAAAAAAGCAGGGCACATGTCAAACTCTTGGTTC | 829 |
| CTAACACATGCGCTGCACGTGCGGCCGGAACAATTC | 7090 |

Series 4
Target: Histone acetyltransferase KAT6A, winged helix 1, GST fusion (KAT6A, Homo sapiens, UniProt Q92794, residues 1-85)
Technique: protein binding microarray
Molecule type: double-stranded DNA, one strand shown
Matrix: in vitro
Concentration: not given
Notes: 8-mer, flanks averaged, mean of 2 arrays, mostly near background
Reference: not given
Reading: higher = stronger binding
Residues (chain): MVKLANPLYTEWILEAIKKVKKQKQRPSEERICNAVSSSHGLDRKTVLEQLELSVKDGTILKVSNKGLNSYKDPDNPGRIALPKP
| Strand | E-score |
| --- | --- |
| GACCGGAA | 0.152 |
| ATAGATCG | -0.00573 |
| ATTCACTG | -0.157 |
| CAAGCCTC | -0.148 |
| AACACGCC | 0.294 |
| TCTGTAAA | 0.0921 |
| ACTAAACG | -0.0728 |
| GGGGTGCA | 0.0205 |
| CCCCGACC | 0.0948 |
| AGCGCTAT | 0.233 |
| AGACCTAG | -0.0377 |
| CAAGCTAC | 0.0425 |
| AGTGCCTC | -0.075 |
| ACTAGCTA | -0.00873 |
| CATAAACA | -0.00677 |
| ACTAGCAC | -0.102 |
| AATGACCT | -0.187 |
| GCTAGGCA | -0.00555 |
| TCGGAGCA | -0.0384 |
| CAAGCTGC | -0.0208 |
| CAAATTAC | -0.0453 |
| ACACCTAA | -0.057 |
| AATATCAG | -0.101 |
| ATAGGAGG | -0.111 |

Some of these lines once more (series 4):
| Strand | E-score |
| --- | --- |
| ATTCACTG | -0.157 |
| GGGGTGCA | 0.0205 |
| GCTAGGCA | -0.00555 |
| AATGACCT | -0.187 |
| CCCCGACC | 0.0948 |
